Assay results from different studies.
Parts stem from different laboratories: compare values within a part only. Several values in a cell are separate wells, animals, samples, runs or records.

Series 1 — action: inhibitor; tested at: 10 µM; reference: control
Target: Diamine acetyltransferase 1 (Homo sapiens, UniProt P21673)
Residues (P21673 1-171): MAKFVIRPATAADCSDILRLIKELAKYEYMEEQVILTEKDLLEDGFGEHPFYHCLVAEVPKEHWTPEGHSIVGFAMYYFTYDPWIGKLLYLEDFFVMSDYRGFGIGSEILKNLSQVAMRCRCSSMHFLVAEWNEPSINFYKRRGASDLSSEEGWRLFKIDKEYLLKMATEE
The remaining activity of `O=C(O)CCc1ccccc1` is reported as 84.9%.
For `O=C1C[C@@H](c2ccc(O)cc2)Oc2cc(O[C@@H]3O[C@H](CO)[C@@H](O)[C@H](O)[C@H]3O)cc(O)c21`, the remaining activity was 87.8%.
`O=C(O)c1cc(O)c(O)c(O)c1` has a remaining activity of 101%.
For `C=C1CC[C@@H]2[C@](C)(CO)[C@H](O)CC[C@@]2(C)[C@@H]1C/C=C1/C(=O)OC[C@H]1O`, the remaining activity was 101%.
`O=C(O)CC(O)(CC(=O)OCc1ccc(O[C@@H]2O[C@H](CO)[C@@H](O)[C@H](O)[C@H]2O)cc1)C(=O)OCc1ccc(O[C@@H]2O[C@H](CO)[C@@H](O)[C@H](O)[C@H]2O)cc1` (stereo partly drawn) gave a remaining activity of 106%.
`N[C@@H](CCO)C(=O)O` has a remaining activity of 114%.

Series 2 — action: degrader; method: HiBiT luminescence; time: 24 h
Compound: C[C@@H]1CN(c2ccc(-c3cc(C(=O)NCCOCCOCCOCCOCCOCCOCCOCCOCCOCCNC(=O)/C=C/c4[nH]cc(C(=O)N[C@@H](CC(N)=O)c5ccc(F)c(Cl)c5)c4-c4ccc(Cl)cc4F)ccc3F)cc2NC(=O)c2c[nH]c(=O)cc2C(F)(F)F)C[C@H](C)N1C
Target: WDR5/DCAF1 (Homo sapiens, UniProt P61964+Q9Y4B6)
The “remaining protein level” was 50.6% and 44.7% and 46.7% and 51.4% (88.1 nM).
For 2 nM: “remaining protein level” read 103% and 112% and 95.3% and 88.5%.
34.2 nM — “remaining protein level”: 54.8% and 67.7% and 77.4% and 63.5%.
It gave 27.9% and 24.9% and 24.2% and 28.1% for “remaining protein level” (1510 nM).

Series 3 — read-out: cell-free assay; method: competition with immobilised ligand; tested at: 1 µM
Compound: CCC(=O)N[C@H]1CC[C@@H](C(=O)N(C)c2ccc(-c3nc4ccccc4o3)cc2)C1
For Dual specificity protein kinase CLK3 (CLK3, Homo sapiens, UniProt P49761): remaining binding read 91%.
For Phosphatidylinositol 3-kinase catalytic subunit type 3 (PIK3C3, Homo sapiens, UniProt Q8NEB9): remaining binding read 89%.
It gave 100% for remaining binding (SRSF protein kinase 3 (SRPK3, Homo sapiens, UniProt Q9UPE1)).
It gave 97% for remaining binding (Serine/threonine-protein kinase BRSK2 (BRSK2, Homo sapiens, UniProt Q8IWQ3)).
Dual specificity mitogen-activated protein kinase kinase 1 (MAP2K1, Homo sapiens, UniProt Q02750) — remaining binding: 89%.
It gave 77% for remaining binding (Phosphatidylinositol 4-kinase beta (PI4KB, Homo sapiens, UniProt Q9UBF8)).
Calcium/calmodulin-dependent protein kinase type IV (CAMK4, Homo sapiens, UniProt Q16566) — remaining binding: 88%.

Series 4 — read-out: enzyme activity; action: inhibitor; tested at: 0.5 µM; reference: control
Compound: Cc1cncc2cccc(S(=O)(=O)N3CCCN(C(=O)CN)C[C@@H]3C)c12
Tyrosine-protein kinase FRK (FRK, Homo sapiens, UniProt P42685) — remaining activity: 114%.
It gave 100% for remaining activity (Serine/threonine-protein kinase Nek1 (NEK1, Homo sapiens, UniProt Q96PY6)).
For Ribosomal protein S6 kinase alpha-2 (RPS6KA2, Homo sapiens, UniProt Q15349): remaining activity read 89.2%.
It gave 106% for remaining activity (Dual specificity mitogen-activated protein kinase kinase 2 (MAP2K2, Homo sapiens, UniProt P36507)).
For Mitogen-activated protein kinase 3 (MAPK3, Homo sapiens, UniProt P27361): remaining activity read 103%.
For Casein kinase I isoform gamma-3 (CSNK1G3, Homo sapiens, UniProt Q9Y6M4): remaining activity read 106%.
For Macrophage-stimulating protein receptor (MST1R, Homo sapiens, UniProt Q04912): remaining activity read 99.3%.
Rhodopsin kinase GRK7 (GRK7, Homo sapiens, UniProt Q8WTQ7) — remaining activity: 88.8%.
Serine/threonine-protein kinase TBK1 (TBK1, Homo sapiens, UniProt Q9UHD2) — remaining activity: 95.7%.
It gave 96.3% for remaining activity (Wee1-like protein kinase (WEE1, Homo sapiens, UniProt P30291)).
For Activin receptor type-1B (ACVR1B, Homo sapiens, UniProt P36896): remaining activity read 100%.
For Serine/threonine-protein kinase ULK3 (ULK3, Homo sapiens, UniProt Q6PHR2): remaining activity read 83.2%.
Serine/threonine-protein kinase TAO2 (TAOK2, Homo sapiens, UniProt Q9UL54) — remaining activity: 94%.

Repeated from above (series 4):
Tyrosine-protein kinase FRK (FRK, Homo sapiens, UniProt P42685) — remaining activity: 114%.
It gave 100% for remaining activity (Serine/threonine-protein kinase Nek1 (NEK1, Homo sapiens, UniProt Q96PY6)).
Serine/threonine-protein kinase TAO2 (TAOK2, Homo sapiens, UniProt Q9UL54) — remaining activity: 94%.
For Serine/threonine-protein kinase ULK3 (ULK3, Homo sapiens, UniProt Q6PHR2): remaining activity read 83.2%.
Serine/threonine-protein kinase TBK1 (TBK1, Homo sapiens, UniProt Q9UHD2) — remaining activity: 95.7%.
